Measurements gathered from unrelated publications.
± gives the spread as reported. Converted amounts (≈) assume the structure as drawn.

SMILES	assay	system	conditions	scale	endpoint	result
CN(O)C(=O)CCC(=O)NCCCN(CCCCN(CCCNC(=O)CCC(=O)N(C)O)C(=O)CCC(=O)N(C)O)C(=O)CCC(=O)N(C)O.[89Zr]		aqueous solution	7 d, pH 7.2, 37 °C, transmetalation, with: FeCl3 100-fold excess		intact compound remaining	62%
C=CC(=O)Nc1cc(Nc2nccc(-c3c[nH]c4ccccc34)n2)c(OC)cc1N(C)CCN(C)C	UHPLC-MS/MS	human, NSCLC patients, finger-prick dried blood spot	oral, 80 mg daily, steady state, at least 14 d treatment		median trough concentration	19 ng/mL
NC12CNCCNCC(NCc3ccc(CNC(=O)CCCC(=O)NCc4ccc(-c5nncnn5)cc4)cc3)(CNCCNC1)CNCCNC2.[64Cu+2]	OLINDA dosimetry	adrenals	48 h pretargeting interval, with: huA33-TCO pretargeting		mean absorbed dose	0.0347 rad/mCi
O=C([O-])CN1CCN(CC(=O)[O-])CCN(CC(=O)NC[C@H]2CC[C@H](C(=O)N[C@H](Cc3cnc4ccccc4c3)C(=O)NCCCC[C@H](NC(=O)N[C@@H](CCC(=O)O)C(=O)O)C(=O)O)CC2)CCN(CC(=O)[O-])CC1.[64Cu+2]	PET/CT, OLINDA/EXM dosimetry	healthy human volunteers, oesophagus			absorbed dose	0.013 mGy/MBq
CCn1c(=O)n(CCO)c(=O)c2c1nc(/C=C/c1ccc(OC)c(OC)c1)n2C		healthy humans, plasma	oral, 40 mg, with: rifampin 600 mg/day		metabolite to parent AUClast ratio	0.0705
Oc1ccc(F)cc1-c1nc2c(Cl)cc(Cl)cc2[nH]1		defibrinated sheep blood	400 µM	reference: 1% Triton X-100	hemolysis	< 50%
CCCC[C@H](NC(=O)CNC(=O)CNC(=O)CN1CCN(CC(=O)O)CCN(CC(=O)O)CCN(CC(=O)O)CC1)C(=O)N[C@H]1CC(=O)NCCCC[C@@H](C(N)=O)NC(=O)[C@H](Cc2c[nH]c3ccccc23)NC(=O)[C@H](CCCNC(=N)N)NC(=O)[C@@H](Cc2ccccc2)NC(=O)[C@H](Cc2c[nH]cn2)NC1=O [copper-64 labelled]		C57 mouse B16/F1 melanoma, tumor	4 h		tissue uptake	5.25 ± 1.22 %ID/g
COC(=O)/C=C/C(=O)c1ccc(OC)cc1		Sprague-Dawley rat, plasma	oral, 200 mg/kg		Vd/F	996 L/kg
Cn1cc(-c2cc(N3CCCCS3(=O)=O)ccc2N[C@H]2CC[C@H](C)CC2)c2cc[nH]c2c1=O (stereo in doubt)		Sprague-Dawley rat, plasma	oral vs intravenous, 3 mg/kg oral, 1 mg/kg i.v.		oral bioavailability	21%
CCCC[C@@H]1NC(=O)[C@@H](NC(=O)[C@H](CCC(=O)O)NC(=O)CNC(=O)CN2CCN(CC(=O)O)CCN(CC(=O)O)CCN(CC(=O)O)CC2)CCCCNC(=O)C[C@@H](C(N)=O)NC(=O)[C@H](C(C)C)NC(=O)[C@@H]2CCCN2C(=O)[C@H](CCCNC(=N)N)NC(=O)CNC(=O)[C@H](Cc2c[nH]c3ccccc23)NC(=O)[C@H](CCCNC(=N)N)NC(=O)[C@@H](Cc2ccccc2)NC(=O)[C@H](Cc2c[nH]cn2)NC(=O)[C@H](CCC(=O)O)NC1=O [gallium-67 labelled]		C57 mice with B16/F1 melanoma, pancreas	intravenous, 0.037 MBq, 2 h		tissue uptake	0.1 ± 0.08 %ID/g
Cn1cc(C(N)=O)c(NC2C3CC4CC2CC(O)(C4)C3)c2ccnc1-2 (stereo not drawn)		Japanese adults, mild hepatic impairment, plasma	oral, 150 mg single dose		AUC(0-t)	563 ng·h/mL
COC1C=COC2(C)Oc3c(C)c(O)c4c(c3C2=O)C2=NC3(CCN(CC(C)C)CC3)NC2=C(NC(=O)C(C)=CC=CC(C)C(O)C(C)C(O)C(C)C(OC(=O)c2cncnc2)C1C)C4=O (stereo not drawn)		female CD-1 mouse, plasma	oral, 10 mg/kg		bioavailability	79.9%
Cc1ccc(OCC(=O)N(Cc2cccs2)c2ccn[nH]2)cc1		Sprague-Dawley rat, female, plasma	oral gavage, 10 mg/kg		dose-normalised AUC(0-last)	0.786 ng·h/mL/mg/kg
Cc1nc(C)c(C=[N+]([O-])C(C)(C)C)nc1C		healthy human, both sexes, serum	oral, 600 mg twice daily, 7 days		Cavg	1980 ng/mL
CCCC[C@H](NC(=O)CNC(=O)CNC(=O)CN1CCN(CC(=O)O)CCN(CC(=O)O)CC1)C(=O)N[C@H]1CC(=O)NCCCC[C@@H](C(N)=O)NC(=O)[C@H](Cc2c[nH]c3ccccc23)NC(=O)[C@H](CCCNC(=N)N)NC(=O)[C@@H](Cc2ccccc2)NC(=O)[C@H](Cc2c[nH]cn2)NC1=O [gallium-67 labelled]		C57 mice, female, B16/F1 melanoma, urine	intravenous, 0.037 MBq, 2 h		urinary excretion	84 ± 5.71%
O=C(CCCCC[N+]#[C][99Tc-5]([C]#[N+]CCCCCC(=O)N[C@H]1C(O)O[C@H](CO)[C@@H](O)[C@@H]1O)([C]#[N+]CCCCCC(=O)N[C@H]1C(O)O[C@H](CO)[C@@H](O)[C@@H]1O)([C]#[N+]CCCCCC(=O)N[C@H]1C(O)O[C@H](CO)[C@@H](O)[C@@H]1O)([C]#[N+]CCCCCC(=O)N[C@H]1C(O)O[C@H](CO)[C@@H](O)[C@@H]1O)[C]#[N+]CCCCCC(=O)N[C@H]1C(O)O[C@H](CO)[C@@H](O)[C@@H]1O)N[C@H]1C(O)O[C@H](CO)[C@@H](O)[C@@H]1O (stereo partly drawn)	SPECT	BALB/c nude mouse PANC-1 xenograft		reference: kidney over tumour	kidney/tumour ratio	1.64
Cc1ccc(/N=N/c2c(O)ccc3ccccc23)c(C)c1		rat whole blood QC samples	16.0 µg/L, 2 h, room temperature, short-term stability		measured concentration	16.1 µg/L
CCCC[C@H](NC(=O)[C@H](C)NC(=O)[C@H](CO)NC(=O)[C@H](CC(C)C)NC(=O)[C@H](CCCCN)NC(=O)[C@]1(C)CCCC=CCCCCCC[C@@](C)(NC(=O)[C@H](CCC(=O)O)NC(=O)[C@H](CC(C)C)NC(=O)[C@]2(C)CCCC=CCCCCCC[C@@](C)(NC(=O)[C@H](CC(C)C)NC(=O)[C@H](CS)NC(=O)[C@H](CCC(N)=O)NC(=O)[C@H](C)NC(=O)[C@H](CCCNC(=N)N)NC(C)=O)C(=O)N[C@@H](CCC(N)=O)C(=O)N[C@@H](CCCNC(=N)N)C(=O)N[C@@H](CCC(=O)O)C(=O)N[C@@H](CCCC)C(=O)N[C@@H](C(C)C)C(=O)N[C@@H](CCC(N)=O)C(=O)N2)C(=O)N[C@@H](CCC(N)=O)C(=O)N[C@@H](CC(C)C)C(=O)N[C@@H](C(C)C)C(=O)N[C@@H](CC(C)C)C(=O)N[C@@H](CCC(=O)O)C(=O)N[C@@H](CCCCN)C(=O)N1)C(=O)N[C@@H](CCC(N)=O)C(=O)N[C@@H](C)C(=O)N[C@@H](Cc1c[nH]cn1)C(N)=O	circular dichroism	sodium acetate buffer	2.5 to 10 µM, pH 3.6, 20 °C		alpha-helicity	74%
COc1ccc(-c2ccn(CC[C@](C)(C(=O)NO)S(C)(=O)=O)c(=O)c2)c(F)c1		CF-1 mouse, female	subcutaneous, 300 mg/kg		clearance	3.92 ± 0.04 L/h/kg
NCC(=O)N1CCC[C@H]1C(=O)N1C[C@H](O)C[C@H]1C(=O)O	potentiometric titration		40 °C, MAH-1 complex, with: Fe(III)		log beta	13.4
O=C(CCc1cc(O)c(O)c(O)c1)NCCCCCCCCCC[P+](c1ccccc1)(c1ccccc1)c1ccccc1		human red blood cells	1 h, 37 °C		HC10	> 32 µg/mL

SMILES	assay	system	conditions	scale	endpoint	result
Cc1ccc(N2Cc3cc(NC(=O)N4CCN(c5cccc(C(F)(F)F)c5)CC4)ccc3C2=O)cc1		mouse C57BL/6, liver microsomes	90 min		remaining parent compound	84.8 ± 3.05%
[11CH3]c1ccc2nc(C3CCC3)n(-c3ccc4[nH]ncc4c3)c2n1		human male, thyroid			absorbed radiation dose	2.1 µSv/MBq
O=C([O-])CN1CCN(CC(=O)[O-])CCN(C(CCC(=O)NCCCCCN(CCCC[C@H](NC(=O)N[C@@H](CCC(=O)O)C(=O)O)C(=O)O)C(=O)c2ccc(I)cc2)C(=O)O)CCN(CC(=O)[O-])CC1.[68Ga+3] (stereo partly drawn)	PET/CT	prostate cancer patients, liver	60 min post-injection		SUVmean	2.5 ± 0.7
O=[11C](OC(C(F)(F)F)C(F)(F)F)N1CCC(CNS(=O)(=O)c2ccc(Cl)cc2)CC1	PET	rhesus monkey, male, striatum	iv, 3.71 mCi		uptake	0.81 SUV
CC(C)[C@H](NC(=O)CNC(=O)[C@H](CCC(N)=O)NC(=O)[C@H](C)N)C(=O)O		human	20 mg/kg, multiple dosing	up to	time of quantifiable concentrations	≤ 45 min
CC1=C(O)C(=O)C=C2C1=CC=C1[C@@]2(C)CC[C@@]2(C)[C@@H]3C[C@](C)(C(=O)NCCOCCOCCOCCOCC(=O)N[C@H](C(=O)N4C[C@H](O)C[C@H]4C(=O)N[C@@H](C)c4ccc(-c5scnc5C)cc4)C(C)(C)C)CC[C@]3(C)CC[C@]12C		C57BL/6 mouse, male, plasma	ip, 20 mg/kg		bioavailability	98%
C#CCOc1ccc(/C=C2\SC(=O)N(CC(=O)NCc3ccccc3)C2=O)cc1	inverse Kirkwood-Buff integrals	binary solvent mixture	298.15 K, mole fraction x1 0.10		Kirkwood-Buff integral G2,3	-544 cm³/mol
NS(=O)(=O)c1ccc(N2N=C(C(F)(F)F)CC2c2ccc(F)cc2F)cc1 (stereo not drawn)		male Wistar rat, liver microsomes	20 µM, pH 7.4		depletion rate	108 pmol/min/mg
CCC(=O)N[C@@H](C)C(=O)OCC(=O)N[C@@H](C)C(=O)O		water	pH 5, 50 °C		depolymerization half-life	157 h
C=C(c1ccc(C(=O)O)c(F)c1)c1cc2c(cc1C)C(C)(C)C=CC2(C)C		Sprague-Dawley rat, male	oral, 100 mg/kg, 9 h, sesame oil vehicle		blood triglycerides	340 ± 182 mg/dL
CC(C)(Sc1ccncc1-c1ccc(C#N)c2ccccc12)C(=O)OC1OC(C(=O)O)C(O)C(O)C1O (stereo not drawn)		urine	oral, 15 mg, moderate renal impairment	reference: normal renal function	renal clearance decrease	60%
CC(C)C[C@H](NC(=O)C[C@H](O)[C@H](CC(C)C)NC(=O)[C@H](Cc1c[nH]cn1)NC(=O)CNC(=O)[C@@H](NC(=O)[C@H](C)NC(=O)[C@H](Cc1c[nH]c2ccccc12)NC(=O)[C@H](CCC(N)=O)NC(=O)[C@@H](Cc1ccccc1)NC(=O)CCNC(=O)CCNC(=O)CN1CCN(CC(=O)O)CCN(CC(=O)O)CCN(CC(=O)O)CC1)C(C)C)C(N)=O [lutetium-177 labelled]	radio-HPLC	mouse	intraperitoneal, 25 MBq/200 pmol, 15 min		intact fraction in blood	48%
Cc1ccc(-c2ccc(-c3cc4sccc4o3)cn2)nc1		aqueous HEPES buffer	pH 7.4, zinc(II)-saturated form, with: quinine bisulfate reference		fluorescence quantum yield	0.44
COC[C@@H](CC(C)C)NC(=O)c1ccc(CO)c(CO)c1	LC-MS	human liver microsomes	10 µM of parent drug, 10 min, pH 7.4, with: NADPH	reference: parent drug at time zero	metabolite peak area	0.2%
C#CCO[C@H]1C[C@H]2[C@@H](C)C[C@H]3OC(=O)C(=C)[C@H]3C[C@]2(C)[C@H]1OCC#C	propidium iodide flow cytometry	primary splenocytes, BALB/c mouse	48 h, 10% fetal calf serum		CC50	32 ± 8.9 µg/mL (≈ 93.4 µM)
CSCOC1C(=O)C2(C)C(OCSC)CC3OCC3(OC(C)=O)C2C(OC(=O)c2ccccc2)C2(O)CC(OC(=O)C(O)C(C=C(C)C)NC(=O)OC(C)(C)C)C(C)=C1C2(C)C (stereo not drawn)		male Sprague-Dawley rat, plasma	intravenous, 1 mg/kg		Vd	44.9 L/kg
Cn1c(=O)oc2ccc(-c3ccc(CC(C#N)NC(=O)C4CNCCCO4)c(F)c3)cc21 (stereo not drawn)		human	oral, 40 mg once daily, TEAE, multiple ascending dose		monocyte count increased incidence	0%
O=S(=O)(O)c1cc(O)c(O)c(S(=O)(=O)O)c1	rotating disk electrode voltammetry	1 M H2SO4	2 mM, reduced form		diffusion coefficient	4.88e-06 cm²/s
CC(C)CCN(c1nc(C#N)nc(NC2COC2)n1)C(C)c1ccc(F)cc1 (stereo not drawn)		water			thermodynamic solubility	42 µM (≈ 16.1 µg/mL)
COc1cc(NC(C)=O)c2c(c1O)-c1c(OC)c(OC)cc3c1C(C2)N(C)CC3 (stereo not drawn)		rat, processed plasma samples	5 µg/mL, 24 h, room temperature, post-preparative storage		remaining compound	104 ± 3.1%
COc1cc(-c2nc3ccc(C(=O)NCCCN4CCN(C5CCCCC5)CC4)cc3n2C2CCC2)cc(OC)c1OC					dynamic solubility	149 µM

Repeated from above:
SMILES	assay	system	conditions	scale	endpoint	result
CC(C)C[C@H](NC(=O)C[C@H](O)[C@H](CC(C)C)NC(=O)[C@H](Cc1c[nH]cn1)NC(=O)CNC(=O)[C@@H](NC(=O)[C@H](C)NC(=O)[C@H](Cc1c[nH]c2ccccc12)NC(=O)[C@H](CCC(N)=O)NC(=O)[C@@H](Cc1ccccc1)NC(=O)CCNC(=O)CCNC(=O)CN1CCN(CC(=O)O)CCN(CC(=O)O)CCN(CC(=O)O)CC1)C(C)C)C(N)=O [lutetium-177 labelled]	radio-HPLC	mouse	intraperitoneal, 25 MBq/200 pmol, 15 min		intact fraction in blood	48%
CCCC[C@H](NC(=O)CNC(=O)CNC(=O)CN1CCN(CC(=O)O)CCN(CC(=O)O)CCN(CC(=O)O)CC1)C(=O)N[C@H]1CC(=O)NCCCC[C@@H](C(N)=O)NC(=O)[C@H](Cc2c[nH]c3ccccc23)NC(=O)[C@H](CCCNC(=N)N)NC(=O)[C@@H](Cc2ccccc2)NC(=O)[C@H](Cc2c[nH]cn2)NC1=O [copper-64 labelled]		C57 mouse B16/F1 melanoma, tumor	4 h		tissue uptake	5.25 ± 1.22 %ID/g
O=C(CCCCC[N+]#[C][99Tc-5]([C]#[N+]CCCCCC(=O)N[C@H]1C(O)O[C@H](CO)[C@@H](O)[C@@H]1O)([C]#[N+]CCCCCC(=O)N[C@H]1C(O)O[C@H](CO)[C@@H](O)[C@@H]1O)([C]#[N+]CCCCCC(=O)N[C@H]1C(O)O[C@H](CO)[C@@H](O)[C@@H]1O)([C]#[N+]CCCCCC(=O)N[C@H]1C(O)O[C@H](CO)[C@@H](O)[C@@H]1O)[C]#[N+]CCCCCC(=O)N[C@H]1C(O)O[C@H](CO)[C@@H](O)[C@@H]1O)N[C@H]1C(O)O[C@H](CO)[C@@H](O)[C@@H]1O (stereo partly drawn)	SPECT	BALB/c nude mouse PANC-1 xenograft		reference: kidney over tumour	kidney/tumour ratio	1.64
Cc1ccc(/N=N/c2c(O)ccc3ccccc23)c(C)c1		rat whole blood QC samples	16.0 µg/L, 2 h, room temperature, short-term stability		measured concentration	16.1 µg/L
